Measurements of several laboratories.
Each line is one published result; not all experiments were run side by side.
B1: erenumab; V domains shown; sequence looked up; VH QVQLVESGGGVVQPGRSLRLSCAASGFTFSSFGMHWVRQAPGKGLEWVAVISFDGSIKYSVDSVKGRFTISRDNSKNTLFLQMNSLRAEDTAVYYCARDRLNYYDSSGYYHYKYYGMAVWGQGTTVTVSS; VL QSVLTQPPSVSAAPGQKVTISCSGSSSNIGNNYVSWYQQLPGTAPKLLIYDNNKRPSGIPDRFSGSKSGTSTTLGITGLQTGDEADYYCGTWDSRLSAVVFGGGTKLTVL
B2: Efnb1 25-236 (Mus musculus, UniProt P52795); sequence looked up; chain ATPLAKNLEPVSWSSLNPKFLSGKGLVIYPKIGDKLDIICPRAEAGRPYEYYKLYLVRPEQAAACSTVLDPNVLVTCNKPHQEIRFTIKFQEFSPNYMGLEFKKYHDYYITSTSNGSLEGLENREGGVCRTRTMKIVMKVGQDPNAVTPEQLTTSRPSKESDNTVKTATQAPGRGSQGDSDGKHETVNQEEKSGPGAGGGGSGDSDSFFNSK
B3: TIMP3 24-144 (Homo sapiens, UniProt P35625); sequence looked up; chain CTCSPSHPQDAFCNSDIVIRAKVVGKKLVKEGPFGTLVYTIKQMKMYRGFTKMPHVQYIHTEASESLCGLKLEVNKYQYLLTGRVYDGKMYTGLCNFVERWDQLTLSQRKGLNYRYHLGCN
B4: CDKN1A 9-84 del46-48 (Homo sapiens, UniProt P38936); sequence looked up; chain RQNPCGSKACRRLFGPVDSEQLSRDCDALMAGCIQEAWNFDFVTETPLEGDFAWERVRGLGLPKLYLPTGPRR
UniProt P07949, sequence (whole entry, looked up): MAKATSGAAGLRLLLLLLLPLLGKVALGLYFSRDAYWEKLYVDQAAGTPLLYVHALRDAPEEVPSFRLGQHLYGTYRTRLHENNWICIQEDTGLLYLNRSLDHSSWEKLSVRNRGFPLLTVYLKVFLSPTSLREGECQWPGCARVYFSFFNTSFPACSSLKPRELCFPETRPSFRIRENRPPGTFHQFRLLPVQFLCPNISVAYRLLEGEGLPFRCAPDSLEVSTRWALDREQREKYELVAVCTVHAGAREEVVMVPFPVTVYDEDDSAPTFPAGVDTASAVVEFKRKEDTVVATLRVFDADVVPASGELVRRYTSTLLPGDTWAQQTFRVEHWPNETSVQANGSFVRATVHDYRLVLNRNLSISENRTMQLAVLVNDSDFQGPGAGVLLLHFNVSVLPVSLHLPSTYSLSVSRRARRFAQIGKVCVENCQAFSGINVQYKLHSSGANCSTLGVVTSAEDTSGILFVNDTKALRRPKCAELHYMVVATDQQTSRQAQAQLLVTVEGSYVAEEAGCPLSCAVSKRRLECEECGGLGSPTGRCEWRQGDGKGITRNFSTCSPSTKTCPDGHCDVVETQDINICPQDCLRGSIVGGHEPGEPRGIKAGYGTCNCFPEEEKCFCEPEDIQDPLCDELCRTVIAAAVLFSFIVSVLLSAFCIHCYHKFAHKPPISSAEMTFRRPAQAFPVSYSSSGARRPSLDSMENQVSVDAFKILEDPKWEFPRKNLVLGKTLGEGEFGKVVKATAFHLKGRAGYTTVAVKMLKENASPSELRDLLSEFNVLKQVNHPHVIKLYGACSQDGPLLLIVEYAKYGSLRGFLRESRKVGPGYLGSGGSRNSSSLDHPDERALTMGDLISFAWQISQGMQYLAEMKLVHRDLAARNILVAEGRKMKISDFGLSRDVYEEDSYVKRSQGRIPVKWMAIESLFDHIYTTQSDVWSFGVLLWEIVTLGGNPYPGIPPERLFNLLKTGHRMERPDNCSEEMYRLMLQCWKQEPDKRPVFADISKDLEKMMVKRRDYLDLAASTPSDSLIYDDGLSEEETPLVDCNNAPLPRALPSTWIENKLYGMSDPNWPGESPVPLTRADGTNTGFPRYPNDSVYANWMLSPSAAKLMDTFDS
UniProt P01031, sequence (whole entry, looked up): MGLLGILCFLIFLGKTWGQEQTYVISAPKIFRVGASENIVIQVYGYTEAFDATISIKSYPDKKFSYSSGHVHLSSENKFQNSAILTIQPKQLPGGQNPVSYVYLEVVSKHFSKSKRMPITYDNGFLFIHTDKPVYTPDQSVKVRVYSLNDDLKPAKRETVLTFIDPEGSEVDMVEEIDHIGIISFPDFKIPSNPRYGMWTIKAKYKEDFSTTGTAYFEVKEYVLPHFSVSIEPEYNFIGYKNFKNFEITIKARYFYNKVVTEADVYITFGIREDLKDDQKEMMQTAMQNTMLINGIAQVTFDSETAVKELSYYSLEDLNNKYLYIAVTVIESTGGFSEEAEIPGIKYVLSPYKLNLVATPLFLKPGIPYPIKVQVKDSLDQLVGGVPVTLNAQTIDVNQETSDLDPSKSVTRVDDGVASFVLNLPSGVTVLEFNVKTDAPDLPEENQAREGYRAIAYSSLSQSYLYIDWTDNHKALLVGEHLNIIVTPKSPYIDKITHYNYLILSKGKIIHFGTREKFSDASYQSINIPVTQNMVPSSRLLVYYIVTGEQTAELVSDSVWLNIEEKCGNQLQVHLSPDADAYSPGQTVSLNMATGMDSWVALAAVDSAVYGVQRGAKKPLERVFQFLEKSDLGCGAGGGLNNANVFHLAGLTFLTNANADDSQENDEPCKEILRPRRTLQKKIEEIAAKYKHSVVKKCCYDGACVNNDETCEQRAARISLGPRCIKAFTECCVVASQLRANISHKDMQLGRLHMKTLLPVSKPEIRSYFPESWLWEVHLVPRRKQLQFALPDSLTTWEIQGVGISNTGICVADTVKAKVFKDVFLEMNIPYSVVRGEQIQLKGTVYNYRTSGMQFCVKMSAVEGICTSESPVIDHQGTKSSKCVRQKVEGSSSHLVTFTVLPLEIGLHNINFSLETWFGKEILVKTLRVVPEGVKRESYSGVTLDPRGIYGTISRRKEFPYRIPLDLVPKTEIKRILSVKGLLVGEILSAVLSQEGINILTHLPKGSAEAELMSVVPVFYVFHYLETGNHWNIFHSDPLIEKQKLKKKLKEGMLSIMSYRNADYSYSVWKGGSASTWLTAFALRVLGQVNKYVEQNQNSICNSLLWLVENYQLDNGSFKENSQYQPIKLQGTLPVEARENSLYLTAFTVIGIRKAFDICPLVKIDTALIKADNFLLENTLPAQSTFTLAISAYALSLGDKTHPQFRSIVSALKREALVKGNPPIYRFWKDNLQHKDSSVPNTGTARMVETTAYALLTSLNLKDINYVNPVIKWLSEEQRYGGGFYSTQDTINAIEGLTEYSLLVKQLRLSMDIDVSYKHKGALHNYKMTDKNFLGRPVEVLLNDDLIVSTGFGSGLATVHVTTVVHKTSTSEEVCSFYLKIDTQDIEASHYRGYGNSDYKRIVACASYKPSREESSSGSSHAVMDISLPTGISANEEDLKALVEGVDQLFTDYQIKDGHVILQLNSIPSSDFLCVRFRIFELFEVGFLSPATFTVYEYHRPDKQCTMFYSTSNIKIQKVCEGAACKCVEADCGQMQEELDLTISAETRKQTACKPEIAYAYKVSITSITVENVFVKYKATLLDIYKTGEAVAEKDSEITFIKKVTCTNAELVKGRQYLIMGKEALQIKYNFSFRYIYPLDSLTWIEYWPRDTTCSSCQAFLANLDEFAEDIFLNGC
UniProt P15208, sequence (whole entry, looked up): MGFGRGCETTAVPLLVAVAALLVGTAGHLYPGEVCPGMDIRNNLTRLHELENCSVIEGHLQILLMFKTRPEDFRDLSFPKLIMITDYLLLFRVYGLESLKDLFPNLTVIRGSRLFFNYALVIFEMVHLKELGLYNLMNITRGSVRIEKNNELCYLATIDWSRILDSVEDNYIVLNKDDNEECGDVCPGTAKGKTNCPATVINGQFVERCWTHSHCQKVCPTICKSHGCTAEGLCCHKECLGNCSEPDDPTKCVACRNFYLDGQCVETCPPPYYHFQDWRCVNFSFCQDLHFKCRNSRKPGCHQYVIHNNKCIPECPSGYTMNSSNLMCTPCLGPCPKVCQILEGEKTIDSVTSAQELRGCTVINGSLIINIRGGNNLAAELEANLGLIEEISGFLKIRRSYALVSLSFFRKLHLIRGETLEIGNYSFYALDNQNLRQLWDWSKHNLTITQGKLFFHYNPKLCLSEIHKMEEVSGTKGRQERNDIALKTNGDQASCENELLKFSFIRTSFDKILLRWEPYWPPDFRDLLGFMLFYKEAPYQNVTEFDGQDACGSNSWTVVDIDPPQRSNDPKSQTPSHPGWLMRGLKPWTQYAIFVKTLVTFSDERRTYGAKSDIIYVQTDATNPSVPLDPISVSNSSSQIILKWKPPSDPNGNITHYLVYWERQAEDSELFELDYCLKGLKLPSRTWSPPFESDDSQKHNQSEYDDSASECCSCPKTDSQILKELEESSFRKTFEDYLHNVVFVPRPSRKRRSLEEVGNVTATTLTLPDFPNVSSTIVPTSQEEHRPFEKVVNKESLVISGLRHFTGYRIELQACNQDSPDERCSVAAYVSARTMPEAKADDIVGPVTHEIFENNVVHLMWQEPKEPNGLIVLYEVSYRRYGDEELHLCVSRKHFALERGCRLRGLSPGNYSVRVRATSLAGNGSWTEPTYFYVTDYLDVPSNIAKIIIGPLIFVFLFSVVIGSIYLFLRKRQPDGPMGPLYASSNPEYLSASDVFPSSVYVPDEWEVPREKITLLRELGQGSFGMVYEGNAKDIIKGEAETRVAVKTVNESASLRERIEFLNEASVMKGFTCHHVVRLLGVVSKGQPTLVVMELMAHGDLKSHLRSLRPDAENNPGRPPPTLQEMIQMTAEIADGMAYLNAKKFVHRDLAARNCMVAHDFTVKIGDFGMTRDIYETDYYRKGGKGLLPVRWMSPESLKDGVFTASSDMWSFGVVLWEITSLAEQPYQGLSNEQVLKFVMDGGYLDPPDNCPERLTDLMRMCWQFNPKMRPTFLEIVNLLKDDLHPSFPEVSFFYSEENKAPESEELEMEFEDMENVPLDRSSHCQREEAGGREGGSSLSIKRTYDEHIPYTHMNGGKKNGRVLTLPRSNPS
UniProt P21730, sequence (whole entry, looked up): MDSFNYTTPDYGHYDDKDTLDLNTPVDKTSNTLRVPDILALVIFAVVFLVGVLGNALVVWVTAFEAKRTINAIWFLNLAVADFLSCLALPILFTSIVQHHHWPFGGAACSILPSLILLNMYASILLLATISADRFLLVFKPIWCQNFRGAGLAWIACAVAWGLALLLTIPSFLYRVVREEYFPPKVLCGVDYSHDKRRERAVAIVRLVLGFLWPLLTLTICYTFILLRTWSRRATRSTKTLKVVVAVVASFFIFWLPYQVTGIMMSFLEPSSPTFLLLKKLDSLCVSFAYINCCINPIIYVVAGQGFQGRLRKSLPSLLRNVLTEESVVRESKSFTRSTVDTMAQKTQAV
UniProt O60656, sequence (whole entry, looked up): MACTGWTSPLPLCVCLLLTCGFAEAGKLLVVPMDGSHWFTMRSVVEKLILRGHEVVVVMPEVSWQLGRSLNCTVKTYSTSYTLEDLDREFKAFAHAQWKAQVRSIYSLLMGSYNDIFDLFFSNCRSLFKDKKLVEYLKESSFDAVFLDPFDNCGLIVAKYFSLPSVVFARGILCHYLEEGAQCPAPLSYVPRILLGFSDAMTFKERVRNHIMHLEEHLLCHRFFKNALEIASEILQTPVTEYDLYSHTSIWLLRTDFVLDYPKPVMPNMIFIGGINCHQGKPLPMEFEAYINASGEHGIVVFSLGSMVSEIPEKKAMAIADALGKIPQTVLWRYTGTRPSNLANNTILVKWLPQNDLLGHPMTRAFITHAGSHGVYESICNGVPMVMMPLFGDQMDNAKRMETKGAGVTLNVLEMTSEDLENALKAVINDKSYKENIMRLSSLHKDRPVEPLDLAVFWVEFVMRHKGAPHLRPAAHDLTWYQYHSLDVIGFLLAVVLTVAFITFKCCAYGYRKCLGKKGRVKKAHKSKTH

Molecule	target or system	assay	system	setting	scale	quantity	result
B1 (erenumab)	CALCR/RAMP1 on cells (Homo sapiens)	cAMP production, antagonist, global Gaddum-Schild	antibody, HEK293S	with: amylin		pKB	5.74
Mca-PLGL-Dpa-AR-NH2, N-terminal Mca/Dpa residue 5/C-terminal amide	MMP14 112-318 (Homo sapiens, UniProt P50281)	steady-state kinetics		37 °C		Km	2.14 µM
B2 (Efnb1 25-236)	Epha4 (Mus musculus, UniProt Q03137)	western blot	Fc fusion, HEK293T	0 to 10 minutes min, with: clustered ephrin B1 5 µg/mL	relative to: baseline, higher = more phosphorylation	EphA phosphorylation	150%
PTH fragment (Homo sapiens)	PTH1R (Homo sapiens, UniProt Q03431)	arrestin3 BRET, agonist	HEK293	2 min		EC50	30 nM
INS mature A and B chains, PEG 5000 on B29 (Homo sapiens)	Insr (Mus musculus, UniProt P15208)	AKT Ser473 phosphorylation, agonist, HTRF	C2C12	30 min		EC50	110 nM
NRTN fragment E135S/R139S (Homo sapiens)	RET 29-635 (Homo sapiens, UniProt P07949)	MAPK signaling, SRE luciferase reporter, agonist	TGW neuroblastoma		higher = stronger signal	maximal luciferase signal	152000 RLU
TPDYLMQLMNAKKLMSSLPNFSGIFNHLERLLDEEISRVRKDMYNDTLNGSTEK (Qki 14-67 C35S/D24A (Mus musculus, UniProt Q9QYS9))	itself	CD thermal melting		50 µM		melting temperature	> 85 °C
C5a (Homo sapiens, UniProt P01031)	C5AR1 (Homo sapiens, UniProt P21730)	flow cytometry	granulocytes, whole blood	210 nM, with: C5a	relative to: non-activated control, higher = more expression	CD11b expression	1.5 fold
B3 (TIMP3 24-144)	ADAMTS5 262-622 (Homo sapiens, UniProt Q9UNA0)	inhibitor, steady-state kinetics		18 h, pH 7.5, 37 °C, tight-binding fit		Ki	0.4 nM
Rigi fragment (Mus musculus)	Trim25 440-630 D488A (Mus musculus, UniProt Q61510)	IFNβ reporter	HEK-293T		relative to: wild type TRIM25, higher = greater loss of enhancement	reduction of IFNβ induction	31 % reduction
UGT1A9 (Homo sapiens, UniProt O60656)	COc1ccc(-c2oc3ccc(OC)cc3c(=O)c2O)cc1	steady-state kinetics		pH 7.4, 37 °C		Vmax	0.0022 µmol/min/mg
B4 (CDKN1A 9-84 del46-48)	CDK4/CCND1	Cdk4/cyclin D1 kinase activity, inhibitor			relative to: wild-type p21-KID, higher = weaker inhibition	relative IC50	> 40 fold
TIMP2 N-terminal domain S4P/V6G/I35V/S68N/V71I/T99N	MMP14 fragment (Homo sapiens)	fluorogenic substrate cleavage, inhibitor, enzyme inhibition assay		apparent		Ki	464 nM
DCTN1 p150-CC1 (Homo sapiens)	dynein (Homo sapiens)	TIRF microscopy			relative to: Ndel1, higher = stronger binding	fold greater apparent affinity	6 fold
